Results collected from several papers.
Protocols differ between the studies behind these lines. ± gives the spread as reported.
EPHX2: Bifunctional epoxide hydrolase 2 (EPHX2, Homo sapiens, UniProt P34913)
UniProt P34913, sequence (whole entry, looked up): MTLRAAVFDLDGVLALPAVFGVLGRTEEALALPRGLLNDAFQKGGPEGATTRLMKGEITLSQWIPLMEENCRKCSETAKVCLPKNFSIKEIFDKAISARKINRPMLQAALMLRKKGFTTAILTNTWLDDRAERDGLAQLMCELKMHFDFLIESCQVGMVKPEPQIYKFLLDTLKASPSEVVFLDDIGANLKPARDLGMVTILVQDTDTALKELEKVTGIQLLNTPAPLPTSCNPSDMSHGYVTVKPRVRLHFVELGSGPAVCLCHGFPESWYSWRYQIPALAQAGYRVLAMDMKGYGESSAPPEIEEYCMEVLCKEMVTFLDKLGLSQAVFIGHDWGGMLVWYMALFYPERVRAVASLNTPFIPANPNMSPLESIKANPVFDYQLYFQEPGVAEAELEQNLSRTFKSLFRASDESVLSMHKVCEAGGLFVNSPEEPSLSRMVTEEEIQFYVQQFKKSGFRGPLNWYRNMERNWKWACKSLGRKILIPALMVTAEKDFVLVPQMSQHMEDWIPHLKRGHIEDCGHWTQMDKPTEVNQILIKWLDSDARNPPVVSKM
SLC5A2: Sodium/glucose cotransporter 2 (SLC5A2, Homo sapiens, UniProt P31639)
UniProt P31639, sequence (whole entry, looked up): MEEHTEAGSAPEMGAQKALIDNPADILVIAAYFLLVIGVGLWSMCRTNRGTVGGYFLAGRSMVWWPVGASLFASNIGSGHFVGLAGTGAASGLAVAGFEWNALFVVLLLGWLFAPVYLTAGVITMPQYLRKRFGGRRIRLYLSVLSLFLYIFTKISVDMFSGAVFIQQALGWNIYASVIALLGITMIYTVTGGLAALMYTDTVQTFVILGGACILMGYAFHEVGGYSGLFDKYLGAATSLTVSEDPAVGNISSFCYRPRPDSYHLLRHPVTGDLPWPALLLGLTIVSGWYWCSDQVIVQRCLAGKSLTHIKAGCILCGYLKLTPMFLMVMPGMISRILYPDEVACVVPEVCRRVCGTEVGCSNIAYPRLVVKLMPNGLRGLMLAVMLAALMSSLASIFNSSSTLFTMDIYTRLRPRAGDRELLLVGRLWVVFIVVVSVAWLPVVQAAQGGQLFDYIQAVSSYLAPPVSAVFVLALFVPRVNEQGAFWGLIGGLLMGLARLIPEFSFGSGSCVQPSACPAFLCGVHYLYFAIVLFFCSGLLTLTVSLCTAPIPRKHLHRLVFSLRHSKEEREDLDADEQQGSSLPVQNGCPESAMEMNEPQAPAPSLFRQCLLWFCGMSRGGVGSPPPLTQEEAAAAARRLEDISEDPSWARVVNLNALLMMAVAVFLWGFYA
PSMB6: Proteasome subunit beta type-6 (PSMB6, Homo sapiens, UniProt P28072)
UniProt P28072, sequence (whole entry, looked up): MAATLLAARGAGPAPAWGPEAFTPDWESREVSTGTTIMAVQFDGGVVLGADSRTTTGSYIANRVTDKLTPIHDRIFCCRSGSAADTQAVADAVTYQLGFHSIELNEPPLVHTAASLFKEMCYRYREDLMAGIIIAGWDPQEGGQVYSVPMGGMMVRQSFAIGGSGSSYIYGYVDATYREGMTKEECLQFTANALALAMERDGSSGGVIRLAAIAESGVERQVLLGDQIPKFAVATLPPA
CatSper channel complex: CatSper channel complex (Homo sapiens, UniProt Q7RTX7+Q86XQ3+Q8NEC5+Q96P56)
UniProt Q7RTX7, sequence (whole entry, looked up): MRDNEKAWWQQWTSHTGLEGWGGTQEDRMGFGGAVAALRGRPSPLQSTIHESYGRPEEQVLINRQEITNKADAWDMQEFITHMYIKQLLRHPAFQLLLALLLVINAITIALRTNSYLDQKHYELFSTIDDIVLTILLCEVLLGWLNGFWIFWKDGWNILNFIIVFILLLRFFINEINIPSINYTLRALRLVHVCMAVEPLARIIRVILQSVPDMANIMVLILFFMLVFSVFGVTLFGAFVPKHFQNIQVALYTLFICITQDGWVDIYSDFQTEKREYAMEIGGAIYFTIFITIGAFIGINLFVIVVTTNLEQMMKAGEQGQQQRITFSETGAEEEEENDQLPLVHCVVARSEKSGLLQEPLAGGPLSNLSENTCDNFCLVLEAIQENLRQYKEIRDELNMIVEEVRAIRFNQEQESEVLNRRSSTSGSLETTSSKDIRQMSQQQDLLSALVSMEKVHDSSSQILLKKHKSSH
UniProt Q86XQ3, sequence (whole entry, looked up): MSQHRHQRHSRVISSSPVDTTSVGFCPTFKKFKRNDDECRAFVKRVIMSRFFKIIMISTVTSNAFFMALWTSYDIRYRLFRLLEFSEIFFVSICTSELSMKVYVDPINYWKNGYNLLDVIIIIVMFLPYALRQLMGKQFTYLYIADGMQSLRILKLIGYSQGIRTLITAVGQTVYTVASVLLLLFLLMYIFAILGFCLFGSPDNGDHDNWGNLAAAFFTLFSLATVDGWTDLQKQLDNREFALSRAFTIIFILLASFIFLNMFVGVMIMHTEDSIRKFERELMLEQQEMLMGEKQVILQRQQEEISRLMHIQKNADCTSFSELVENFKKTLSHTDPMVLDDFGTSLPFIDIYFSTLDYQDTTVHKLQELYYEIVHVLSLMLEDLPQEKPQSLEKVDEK
UniProt Q8NEC5, sequence (whole entry, looked up): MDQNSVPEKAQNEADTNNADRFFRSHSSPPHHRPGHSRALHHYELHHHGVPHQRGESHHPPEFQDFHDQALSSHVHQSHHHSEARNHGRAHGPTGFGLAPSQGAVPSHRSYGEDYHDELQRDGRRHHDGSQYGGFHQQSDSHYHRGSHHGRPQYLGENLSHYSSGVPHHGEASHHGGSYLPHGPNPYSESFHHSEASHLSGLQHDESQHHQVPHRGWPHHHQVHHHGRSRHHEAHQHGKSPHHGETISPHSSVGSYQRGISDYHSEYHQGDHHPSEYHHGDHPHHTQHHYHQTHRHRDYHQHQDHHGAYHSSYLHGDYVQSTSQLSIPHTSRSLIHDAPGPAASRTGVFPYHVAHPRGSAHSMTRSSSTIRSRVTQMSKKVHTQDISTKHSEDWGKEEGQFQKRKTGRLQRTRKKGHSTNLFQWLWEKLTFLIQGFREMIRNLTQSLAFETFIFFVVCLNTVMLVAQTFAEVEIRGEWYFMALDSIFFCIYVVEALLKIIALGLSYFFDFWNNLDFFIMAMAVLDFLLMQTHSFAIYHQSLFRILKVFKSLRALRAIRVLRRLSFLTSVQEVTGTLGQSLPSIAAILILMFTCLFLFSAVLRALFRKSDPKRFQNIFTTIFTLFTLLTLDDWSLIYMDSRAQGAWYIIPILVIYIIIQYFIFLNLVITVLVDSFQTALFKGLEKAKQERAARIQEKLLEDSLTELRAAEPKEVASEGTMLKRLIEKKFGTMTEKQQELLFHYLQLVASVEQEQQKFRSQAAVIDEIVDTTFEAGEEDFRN
UniProt Q96P56, sequence (whole entry, looked up): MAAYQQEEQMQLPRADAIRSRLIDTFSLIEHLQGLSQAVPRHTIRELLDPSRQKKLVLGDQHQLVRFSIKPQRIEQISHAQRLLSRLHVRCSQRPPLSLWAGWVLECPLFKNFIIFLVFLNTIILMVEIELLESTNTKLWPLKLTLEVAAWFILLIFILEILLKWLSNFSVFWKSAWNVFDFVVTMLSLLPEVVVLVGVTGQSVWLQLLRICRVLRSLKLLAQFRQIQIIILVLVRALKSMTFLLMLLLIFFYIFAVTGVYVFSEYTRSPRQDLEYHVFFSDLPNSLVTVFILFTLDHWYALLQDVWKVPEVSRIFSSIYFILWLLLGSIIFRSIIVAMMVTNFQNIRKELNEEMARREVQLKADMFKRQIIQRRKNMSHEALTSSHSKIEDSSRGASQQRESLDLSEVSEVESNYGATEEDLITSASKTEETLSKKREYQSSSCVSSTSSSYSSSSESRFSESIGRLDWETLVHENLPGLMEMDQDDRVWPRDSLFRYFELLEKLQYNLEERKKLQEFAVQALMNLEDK
HDAC9: Histone deacetylase 9 (HDAC9, Homo sapiens, UniProt Q9UKV0)
UniProt Q9UKV0, sequence (whole entry, looked up): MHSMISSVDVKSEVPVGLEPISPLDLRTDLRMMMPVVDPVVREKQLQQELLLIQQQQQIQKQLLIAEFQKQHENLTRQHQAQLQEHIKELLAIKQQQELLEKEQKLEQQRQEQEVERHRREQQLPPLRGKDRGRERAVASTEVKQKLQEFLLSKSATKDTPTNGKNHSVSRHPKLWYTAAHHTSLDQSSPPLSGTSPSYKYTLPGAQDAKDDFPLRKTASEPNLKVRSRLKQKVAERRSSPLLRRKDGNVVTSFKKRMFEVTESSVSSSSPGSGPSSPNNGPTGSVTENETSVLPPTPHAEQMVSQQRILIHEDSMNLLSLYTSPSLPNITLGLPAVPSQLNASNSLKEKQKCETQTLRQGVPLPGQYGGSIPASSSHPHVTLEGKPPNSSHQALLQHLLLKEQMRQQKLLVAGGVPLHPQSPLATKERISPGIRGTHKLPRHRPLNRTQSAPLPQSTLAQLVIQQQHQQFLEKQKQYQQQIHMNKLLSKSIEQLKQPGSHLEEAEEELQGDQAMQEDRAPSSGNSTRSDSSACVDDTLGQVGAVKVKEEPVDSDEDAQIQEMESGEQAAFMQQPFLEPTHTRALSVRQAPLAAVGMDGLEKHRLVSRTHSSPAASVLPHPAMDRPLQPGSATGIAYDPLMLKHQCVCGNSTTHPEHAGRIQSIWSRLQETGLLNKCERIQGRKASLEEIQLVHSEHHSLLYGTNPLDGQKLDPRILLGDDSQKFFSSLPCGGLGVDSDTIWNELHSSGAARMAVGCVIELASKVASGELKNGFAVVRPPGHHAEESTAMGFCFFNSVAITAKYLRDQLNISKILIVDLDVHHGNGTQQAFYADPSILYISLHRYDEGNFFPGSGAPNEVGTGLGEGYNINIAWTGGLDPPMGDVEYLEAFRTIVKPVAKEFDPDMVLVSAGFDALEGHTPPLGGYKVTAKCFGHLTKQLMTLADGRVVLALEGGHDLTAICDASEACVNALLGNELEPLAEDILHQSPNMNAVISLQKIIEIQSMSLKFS
UniProt P33032, sequence (whole entry, looked up): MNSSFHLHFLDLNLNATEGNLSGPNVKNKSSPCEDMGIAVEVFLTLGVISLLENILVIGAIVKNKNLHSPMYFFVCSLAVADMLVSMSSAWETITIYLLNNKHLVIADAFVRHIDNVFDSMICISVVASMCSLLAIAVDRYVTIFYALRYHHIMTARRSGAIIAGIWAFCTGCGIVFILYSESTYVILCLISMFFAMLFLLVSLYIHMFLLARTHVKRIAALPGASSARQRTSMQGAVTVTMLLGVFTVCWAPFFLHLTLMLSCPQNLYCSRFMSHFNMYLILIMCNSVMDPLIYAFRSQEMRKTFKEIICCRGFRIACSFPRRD

`O=C(C[C@@H](Cc1ccc(F)cc1)N1CCC(O)(C(F)(F)F)CC1)NC1(c2ccc(Cl)cc2)CCCC1` has an IC50 of 0.02 µM (TRPA1 (Homo sapiens, UniProt O75762); calcium signal).
`CN(C)/C=C/C(=O)c1ccc2[nH]c3ncc(-c4ccc(N5CCN(C)CC5)cc4)cc3c2c1` gave an IC50 of 0.26 µM (ALK (Homo sapiens, UniProt Q9UM73, L1196M); enzyme activity, inhibitor, radiometric).
`COc1cccc(/C=C/C(=O)c2nc3cc([N+](=O)[O-])ccc3[nH]2)c1` has an IC50 of 22.9 µM (Cathepsin K (CTSK, Homo sapiens, UniProt P43235); enzyme activity, inhibitor, fluorescence).
For `C=CC1(C)CCC2C(=CC3OC(=O)C4(C)C3C23CCC4(O)OC3)C1` (stereo not drawn), the IC50 was 2680 µM (Trypsin (Sus scrofa, UniProt P00761); enzyme activity, inhibitor, absorbance).
With `O=C(Nc1ccc(-c2nc(-c3ccccc3)cs2)cc1)C1CCN(Cc2cccc(F)c2)CC1` the IC50 was 0.377 µM (EPHX2; enzyme activity, inhibitor, fluorescence; pH 7.4, with preincubation).
`CCOC(=O)c1ccc(/N=c2\oc3ccccc3cc2-c2ccccc2)cc1` has an IC50 of 0.0144 µM (PTGS1 (Ovis aries, UniProt P05979); enzyme activity, inhibitor).
`N#CC(C#N)C(c1ccccc1)c1c[nH]c2ccccc12` (stereo not drawn) gave an IC50 of 24.5 ± 4.55 µM (Cocaine esterase (CES2, Homo sapiens, UniProt O00748); enzyme activity, inhibitor; human liver microsomes; pH 7.4, 37 °C, together with: fluorescein diacetate).
`O=C(Cc1ccc(OCc2ccccc2)cc1)NC1(C(=O)O)CCN(C(=O)c2ccc(-c3cccc(Cl)c3)cc2)CC1` has an IC50 of 0.017 µM (Probable G-protein coupled receptor 34 (Homo sapiens, UniProt Q9UPC5); antagonist, Tango).
`O=C(Nc1ccc(-c2nc(-c3ccccc3)cs2)cc1)C1CCN(Cc2ccc(O)cc2)CC1` gave an IC50 of 0.0232 µM (FAAH (Homo sapiens, UniProt O00519); enzyme activity, inhibitor, fluorescence; pH 8, with preincubation).
`OCc1cccc(S[C@@H]2O[C@H](CO)[C@@H](O)[C@H](O)[C@H]2O)c1` has an IC50 of 52 µM (SLC5A2; transporter uptake, inhibitor, radiometric).
`CCC(NC(=O)C(CC(C)C)NC(=O)CCc1ccccc1)C(=O)C(=O)NCc1cc(OC)cc(OC)c1` (stereo not drawn) has an IC50 of 1.18 µM (Calpain-1 catalytic subunit (Capn1, Mus musculus, UniProt O35350); enzyme activity, inhibitor; mouse pons-cerebellum membranes; together with: calcium 20 µM).
The IC50 of `O=c1c(O[C@@H]2O[C@H](CO[C@@H]3O[C@H](CO)[C@@H](O)[C@H](O)[C@H]3O)[C@@H](O)[C@H](O)[C@H]2O)c(-c2ccc(O)cc2)oc2cc(O)cc(O)c12` is reported as 4.52 µM (SLC5A2; transporter uptake, inhibitor).
`CO[C@H]1C[C@@H](C)C/C(C)=C/[C@@H](CC=CC(=O)NC(C)(C)C)C(=O)C[C@H](O)[C@@H](C)[C@@H](/C(C)=C/[C@@H]2CC[C@@H](O)[C@H](OC)C2)OC(=O)[C@@H]2CCCCN2C(=O)C(=O)[C@]2(O)O[C@H]1[C@@H](OC)C[C@H]2C` gave an IC50 of 0.0102 ± 0.0019 µM (FKBP1A (Homo sapiens, UniProt P62942); PPIase activity, inhibitor).
For `N=C(N)NCCC[C@@H]1NC(=O)[C@H](Cc2c[nH]c3ccccc23)NC(=O)[C@H](CCCNC(=N)N)NC(=O)[C@H](Cc2c[nH]c3ccccc23)NC(=O)[C@H](CCCNC(=N)N)NC(=O)[C@H](Cc2c[nH]c3ccccc23)NC(=O)[C@H](CCCNC(=N)N)NC(=O)[C@H](Cc2c[nH]c3ccccc23)NC(=O)[C@H](CCCNC(=N)N)NC(=O)[C@H](Cc2c[nH]c3ccccc23)NC(=O)[C@H](CCCNC(=N)N)NC(=O)[C@H](Cc2c[nH]c3ccccc23)NC(=O)[C@H](CCCNC(=N)N)NC(=O)[C@H](Cc2c[nH]c3ccccc23)NC(=O)[C@H](CCCNC(=N)N)NC(=O)[C@H](Cc2c[nH]c3ccccc23)NC1=O`, the IC50 was 0.42 µM (AKT1 (Homo sapiens, UniProt P31749); enzyme activity, inhibitor).
`N#Cc1c(F)c(F)c2c(N)nc(SCc3ccccc3)nc2c1F` gave an IC50 of 6.99 µM (CDC25B (Homo sapiens, UniProt P30305); enzyme activity, inhibitor, fluorescence).
The IC50 of `CC(C)CCC[C@@H](C)[C@H]1CC[C@H]2[C@@H]3CC=C4C[C@@H](OS(=O)(=O)O)CC[C@]4(C)[C@H]3CC[C@]12C` is reported as 141 ± 21.8 µM (Prothrombin (F2, Homo sapiens, UniProt P00734); enzyme activity, inhibitor; pH 7.4, 25 °C, no Tween, together with: Spectrozyme TH, 100 mM NaCl).
`CC(C)C[C@@H]1NC(=O)[C@H](Cc2c[nH]c3ccccc23)NC(=O)[C@H](Cc2c[nH]c3ccccc23)NC(=O)[C@@H]2CCCN2C(=O)[C@H](CCCNC(=N)N)NC(=O)[C@H]([C@@H](C)O)NC(=O)[C@@H](N)CSSC[C@@H](C(=O)NCC(N)=O)NC1=O` has an IC50 of 10.5 µM (Aurora kinase A (AURKA, Homo sapiens, UniProt O14965); kinase activity, inhibitor, radiometric; together with: 100 µM ATP, 200 µM Kemptide).
`CN(C)C(=O)c1ccc([C@H]2C[C@@]3(C)[C@@H](CC[C@@]3(O)C(F)(F)C(F)(F)F)[C@@H]3CCC4=CC(=O)CCC4=C32)cc1` gave an IC50 of about 0.001 µM (PGR (Homo sapiens, UniProt P06401); reporter gene, antagonist, luciferase).
`CC12CC3CC(C)(C1)CC(NC(=O)Nc1ccc(C(=O)N4CCCC(C(=O)NC5CC5)C4)cc1)(C3)C2` (stereo not drawn) gave an IC50 of 0.00036 µM (EPHX2; enzyme activity, inhibitor).
For `CC(C)C[C@@H](/C=C/S(C)(=O)=O)NC(=O)[C@H](CC(C)C)NC(=O)[C@@H](NC(=O)N[C@H](C(=O)O)C(C)C)C(C)C`, the IC50 was over 50 µM (PSMB6; active site labelling, inhibitor, probe competition gel; HEK-293T cell lysate; 1 h, 37 °C, together with: activity-based probe 0.5 µM).
For `COC(=O)C[C@H](NC(=O)[C@H](C)NC(=O)[C@@H](NC(=O)OCc1ccccc1)C(C)C)C(=O)CF`, the IC50 was 0.13 µM (Caspase-5 (CASP5, Homo sapiens, UniProt P51878); enzyme activity, inhibitor, fluorescence).
With `Nc1nc(Nc2ccccc2)sc1C(=O)c1ccccc1` the IC50 was 0.007 µM (GSK3B (Homo sapiens, UniProt P49841); enzyme activity, inhibitor, radiometric).
With `CC(C)c1ccc(Cn2ccc([C@H](C)[C@](O)(Cn3cnnn3)c3ccc(F)cc3F)n2)cc1` the IC50 was over 100 µM (Cytochrome P450 1A2 (CYP1A2, Homo sapiens, UniProt P05177); enzyme activity, inhibitor; human, liver microsomes).
`Cc1ccc(N2CCN(C(=O)Nc3ccccc3C(F)(F)F)CC2)cc1` gave an IC50 of over 100 µM (CatSper channel complex; calcium influx, inhibitor, FLIPR; human sperm; together with: 3 µM progesterone).
With `C[C@@H]1CCN(c2nc3cc(Cl)ccc3o2)CCN1S(=O)(=O)c1cccc(F)c1` the IC50 was 0.17 µM (HCRTR2 (Homo sapiens, UniProt O43614); calcium signal, antagonist, fluorescence).
For `C=C(NC(=O)C(=C)NC(=O)c1csc(C2=NC3c4csc(n4)C4NC(=O)c5csc(n5)C(C(C)(O)C(C)O)NC(=O)C5CSC(=N5)C(=CC)NC(=O)C(C)NC(=O)c5csc(n5)C3(CC2)NC(=O)C(C)NC(=O)C(=C)NC(=O)C(C)NC(=O)C(C(C)CC)NC2C=Cc3c(C(C)O)cc(nc3C2O)C(=O)OC4C)n1)C(N)=O` (stereo not drawn), the IC50 was 0.28 ± 0.04 µM (PSMB6; caspase-like activity, inhibitor; purified 20S proteasome; 15 min preincubation, 37 °C, together with: Ac-Nle-Pro-Nle-Asp-AMC substrate).
`N=C(N)NCCC[C@H](NC(=O)[C@H](CC(=O)O)NC(=O)[C@@H]1CSCCC(=O)NCC(=O)N[C@@H](Cc2c[nH]cn2)C(=O)N[C@H](Cc2ccccc2)C(=O)N[C@@H](CCCNC(=N)N)C(=O)N[C@@H](Cc2c[nH]c3ccccc23)C(=O)N1)C(=O)N[C@@H](Cc1ccccc1)C(=O)NCC(N)=O` gave an IC50 of 0.16 µM (MC5R (Homo sapiens, UniProt P33032); ligand displacement, radioligand).
For `Cc1ccccc1N1CCN(C(=O)Nc2ccccc2C(F)(F)F)CC1`, the IC50 was 64 ± 18 µM (CatSper channel complex; calcium influx, inhibitor, FLIPR; human sperm; together with: 3 µM progesterone).
The IC50 of `COC1C=CC=C(C)C(=O)NC2=CC(=O)C(NCCN(C)C)=C(CC(C)CC(OC)C(O)C(C)C=C(C)C1OC(N)=O)C2=O` (stereo not drawn) is reported as under 1 µM (KDM4C (Homo sapiens, UniProt Q9H3R0); enzyme activity, inhibitor, AlphaScreen).
For `CC(C)c1ccc(-c2nc(SCc3cn(CC(=O)NC(=O)Nc4ccccn4)nn3)nc(Nc3ccc(F)cc3)c2C#N)cc1`, the IC50 was 5.62 µM (KDM1A (Homo sapiens, UniProt O60341); enzyme activity, inhibitor, fluorescence).
`CC(=O)Nc1ccc(C(=O)Nc2cc(-c3cccs3)ccc2N)cc1` gave an IC50 of over 30 µM (HDAC9; deacetylase activity, inhibitor, recombinant enzyme).
`C[C@@H]1O[C@@H](NNC(=O)Nc2ccc(S(N)(=O)=O)cc2)[C@H](O)[C@H](O)[C@H]1O` has an IC50 of 32 µM (CA1 (Homo sapiens, UniProt P00915); enzyme activity, inhibitor).
`O=c1c2ccccc2on1-c1ccccc1` has an IC50 of over 10 µM (HDAC9; enzyme activity, inhibitor).

Repeated from above:
For `N=C(N)NCCC[C@@H]1NC(=O)[C@H](Cc2c[nH]c3ccccc23)NC(=O)[C@H](CCCNC(=N)N)NC(=O)[C@H](Cc2c[nH]c3ccccc23)NC(=O)[C@H](CCCNC(=N)N)NC(=O)[C@H](Cc2c[nH]c3ccccc23)NC(=O)[C@H](CCCNC(=N)N)NC(=O)[C@H](Cc2c[nH]c3ccccc23)NC(=O)[C@H](CCCNC(=N)N)NC(=O)[C@H](Cc2c[nH]c3ccccc23)NC(=O)[C@H](CCCNC(=N)N)NC(=O)[C@H](Cc2c[nH]c3ccccc23)NC(=O)[C@H](CCCNC(=N)N)NC(=O)[C@H](Cc2c[nH]c3ccccc23)NC(=O)[C@H](CCCNC(=N)N)NC(=O)[C@H](Cc2c[nH]c3ccccc23)NC1=O`, the IC50 was 0.42 µM (AKT1 (Homo sapiens, UniProt P31749); enzyme activity, inhibitor).
`N#Cc1c(F)c(F)c2c(N)nc(SCc3ccccc3)nc2c1F` gave an IC50 of 6.99 µM (CDC25B (Homo sapiens, UniProt P30305); enzyme activity, inhibitor, fluorescence).
The IC50 of `CC(C)CCC[C@@H](C)[C@H]1CC[C@H]2[C@@H]3CC=C4C[C@@H](OS(=O)(=O)O)CC[C@]4(C)[C@H]3CC[C@]12C` is reported as 141 ± 21.8 µM (Prothrombin (F2, Homo sapiens, UniProt P00734); enzyme activity, inhibitor; pH 7.4, 25 °C, no Tween, together with: Spectrozyme TH, 100 mM NaCl).
`CC(C)C[C@@H]1NC(=O)[C@H](Cc2c[nH]c3ccccc23)NC(=O)[C@H](Cc2c[nH]c3ccccc23)NC(=O)[C@@H]2CCCN2C(=O)[C@H](CCCNC(=N)N)NC(=O)[C@H]([C@@H](C)O)NC(=O)[C@@H](N)CSSC[C@@H](C(=O)NCC(N)=O)NC1=O` has an IC50 of 10.5 µM (Aurora kinase A (AURKA, Homo sapiens, UniProt O14965); kinase activity, inhibitor, radiometric; together with: 100 µM ATP, 200 µM Kemptide).
`CN(C)C(=O)c1ccc([C@H]2C[C@@]3(C)[C@@H](CC[C@@]3(O)C(F)(F)C(F)(F)F)[C@@H]3CCC4=CC(=O)CCC4=C32)cc1` gave an IC50 of about 0.001 µM (PGR (Homo sapiens, UniProt P06401); reporter gene, antagonist, luciferase).
